Results collected from several papers.
Each line is one published result; not all experiments were run side by side. “And” joins repeats or separate records; there may be more than shown. ± marks the error that the study gave.
Voltage-dependent P/Q-type calcium channel subunit alpha-1A: Voltage-dependent P/Q-type calcium channel subunit alpha-1A (Homo sapiens, UniProt O00555)
ADRA2C: Alpha-2C adrenergic receptor (ADRA2C, Homo sapiens, UniProt P18825)
Rab GDP dissociation inhibitor beta with Rab1A: Rab GDP dissociation inhibitor beta, with Rab1A (Homo sapiens, UniProt P50395)
UCHL1: Ubiquitin carboxyl-terminal hydrolase isozyme L1 (UCHL1, Homo sapiens, UniProt P09936)
KCNC4: Voltage-gated potassium channel KCNC4 (KCNC4, Homo sapiens, UniProt Q03721)
PDGFRB: Platelet-derived growth factor receptor beta (PDGFRB, Homo sapiens, UniProt P09619)

| SMILES | target or system | assay | test system | setting | scale | measurement | value |
| --- | --- | --- | --- | --- | --- | --- | --- |
| C[C@H](NCc1ccc(OCc2ccccc2F)cc1)C(N)=O | Voltage-dependent P/Q-type calcium channel subunit alpha-1A | ion current, antagonist | HEK293 | 10 µM |  | inhibition | 40% |
| N=C(N)c1ccc(OCCCCCOc2ccc(C(=N)N)cc2)cc1 | Trypanosoma cruzi | reporter translation, Renilla luciferase mRNA translation | cell-free extract | 40 µM | baseline: DMSO | inhibition | -7.7% |
| CC[C@]12CCCN3CCc4c([nH]c5ccccc45)[C@]31N(Cc1cn(Cc3ccccc3)nn1)C(=O)C2 | Prolactin-releasing peptide receptor (PRLHR, Homo sapiens, UniProt P49683) | beta-arrestin recruitment, antagonist, PathHunter chemiluminescence |  | 20 µM, with: agonist at EC80 |  | inhibition | 59% |
| O=C(NO)c1ccc(CN2CCCCc3ccccc32)c(F)c1 | ADRA2C | radioligand binding, PDSP radioligand binding |  | 10 µM |  | inhibition | -8.95% |
| COc1cc(-c2cc(C(C)=O)n3ccccc23)c(OC)cc1Cn1ccnc1 | Bromodomain-containing protein 4, BD1 (BRD4, Homo sapiens, UniProt O60885) |  |  | 1 µM |  | inhibition | -2.62% |
| Cc1cc(-c2ccnc3[nH]cc(F)c23)cc(F)c1[C@@]1(O)[C@H](C)CN(C(=O)CN)C[C@@H]1C | Serine/threonine-protein kinase LATS1 (LATS1, Homo sapiens, UniProt O95835) | ATP probe binding, KiNativ, measured: Lys2 site | HEK293T cell lysate | 0.1 µM |  | inhibition | 37.5% |
| Cc1cc(C)cc(COc2cc3c(cc2OCc2cc(C)cc(C)c2)[C@@H]2C[C@@](O)(Cc4cn(Cc5ccc(S(C)(=O)=O)cc5)nn4)C[C@@H](C)N2CC3)c1 | Rab GDP dissociation inhibitor beta with Rab1A | GDI2-Rab1A interaction, NanoLuc complementation |  | 6.25 µM |  | inhibition | 91.1% |
| OO | Histone acetyltransferase RTT109, with Vps75 (Saccharomyces cerevisiae, UniProt Q07794) | enzyme activity |  | 1 mM, with: Rtt109-Vps75 complex, with DTT |  | inhibition | 20 ± 10% |
| COc1ccc(Cn2cc(C[C@@]3(O)C[C@@H]4c5cc(OCc6cc(C)cc(C)c6)c(OCc6cc(C)cc(C)c6)cc5CCN4[C@@H](C)C3)nn2)cc1 | Rab GDP dissociation inhibitor beta with Rab1A | GDI2-Rab1A interaction, NanoLuc complementation |  | 6.25 µM |  | inhibition | 96.7% |
| Cc1cc(NNC(=O)NC2CCCCC2)nc(Cl)c1C#N | UCHL1 | covalent, intact protein LC-MS |  | 12.5 µM |  | labelling | 13.6% |
| Cc1ccc(C(=O)Nc2ccc3ccccc3c2)o1 | KCNC4 | ion current, inhibitor, whole-cell patch clamp |  | 10 µM |  | inhibition | 0% and 2.76% and 2.15% |
| CC(NC(=O)C(C#N)=Cc1ccccc1F)c1ccccc1 (stereo not drawn) | UCHL1 | covalent, intact protein LC-MS |  | 12.5 µM |  | labelling | 34% |
| Cc1cc(C)cc(COc2cc3c(cc2OCc2cc(C)cc(C)c2)[C@H]2C[C@](O)(Cc4cn(Cc5ccc6ccccc6c5)nn4)C[C@H](C)N2CC3)c1 | Rab GDP dissociation inhibitor beta with Rab1A | GDI2-Rab1A interaction, NanoLuc complementation |  | 6.25 µM |  | inhibition | 95.6% |
| COc1ccccc1CN1CC(C(=O)NCCN(C)CCc2ccccc2)CCC1=O (stereo not drawn) | Trypanosoma cruzi | reporter translation, Renilla luciferase mRNA translation | cell-free extract | 40 µM | baseline: DMSO | inhibition | -13.4% |
| CC[C@@H]1[C@H](F)C(=O)N[C@@H]1COc1nccc2cc(C(N)=O)c(OC)cc12 | Mitogen-activated protein kinase kinase kinase 4 (MAP3K4, Homo sapiens, UniProt Q9Y6R4) | ATP-site probe binding, ActivX profiling | THP-1 cell lysate | 0.01 mM, Lys2 site |  | inhibition | 18.5% |
| Cc1cc(C)cc(COc2cc3c(cc2OCc2cc(C)cc(C)c2)[C@H]2C[C@](O)(Cc4cn(Cc5ccc(-c6ccccc6)cc5)nn4)C[C@H](C)N2CC3)c1 | Rab GDP dissociation inhibitor beta with Rab1A | GDI2-Rab1A interaction, NanoLuc complementation |  | 6.25 µM |  | inhibition | 91.8% |
| COc1cc2ncnc(Nc3ccc(Oc4ccccc4)c(C)c3C)c2cc1OC | Tyrosine-protein kinase Lyn, isoform B (LYN, Homo sapiens, UniProt P07948) | kinase activity, inhibitor |  | 1 µM |  | inhibition | 88% |
| Cc1ccc(C(=O)Nc2ccc(S(=O)(=O)O)c3cc(S(=O)(=O)O)cc(S(=O)(=O)O)c23)cc1NC(=O)c1cccc(NC(=O)Nc2cccc(C(=O)Nc3cc(C(=O)Nc4ccc(S(=O)(=O)O)c5cc(S(=O)(=O)O)cc(S(=O)(=O)O)c45)ccc3C)c2)c1 | NAD-dependent protein deacetylase sirtuin-2 (SIRT2, Homo sapiens, UniProt Q8IXJ6) | enzyme activity, inhibitor |  | 10 µM |  | inhibition | < 5% |
| COc1ccc(F)cc1C(=O)NCc1ccc(-c2nn([C@@H](C)C(F)(F)F)c(N)c2C(N)=O)cc1 | Tyrosine-protein kinase Tec (TEC, Homo sapiens, UniProt P42680) | target engagement, competitive chemoproteomics | human PBMCs | 1 µM |  | inhibition | 53.1% |
| CNCCC(Oc1ccc(C(F)(F)F)cc1)c1ccccc1.Cl (stereo not drawn) | Voltage-dependent P/Q-type calcium channel subunit alpha-1A | ion current, antagonist |  | 3 µM |  | inhibition | 31% |
| CC(C)c1noc2ncc(C(=O)c3ccccc3O)cc12 | KCNC4 | ion current, whole-cell patch-clamp |  | 10 µM, hKv3.4 |  | inhibition | 0.894% |

| SMILES | target or system | assay | test system | setting | scale | measurement | value |
| --- | --- | --- | --- | --- | --- | --- | --- |
| CC[C@@H]1C(=O)OC[C@@H]1Cc1cncn1C.Cl | Voltage-dependent P/Q-type calcium channel subunit alpha-1A | ion current, antagonist |  | 3 µM |  | inhibition | 12% |
| [2H]c1cc(C)c(NC(=O)c2cnc(Nc3cc(N4CCC(O)CC4)nc(C)n3)s2)c(Cl)c1 | PDGFRB |  |  | 0.001 µM |  | inhibition | < 50% |
| COc1cc(C(=O)NS(=O)(=O)c2ccccc2C)ccc1Cc1cn(C)c2ccc(NC(=O)OC3CCCC3)cc12 | Volume-regulated anion channel subunit LRRC8C, part LRRC8A IL1 chimera (LRRC8C, Homo sapiens, UniProt Q8TDW0, E6A) | ion current, inhibitor, whole-cell patch clamp | HCT LRRC8-/- cells | 0.3 µM, +100 mV |  | inhibition | 47.3% and 42.1% and 24.5% and 76.2% |
| C/C=C/C(=O)Nc1ccc(CCn2cc(C[C@@]3(O)C[C@@H]4c5cc(OCc6cc(C)cc(C)c6)c(OCc6cc(C)cc(C)c6)cc5CCN4[C@@H](C)C3)nn2)cc1 | Rab GDP dissociation inhibitor beta with Rab1A | GDI2-Rab1A interaction, NanoLuc complementation |  | 6.25 µM |  | inhibition | 96.2% |
| CCCC(CCC)C(N)=O | Epoxide hydrolase 1 (EPHX1, Homo sapiens, UniProt P07099) | enzyme activity | human liver microsomes | 10 µM, with: styrene oxide 50 µM |  | inhibition | 50% |
| CCn1cc(C(=O)O)c(=O)c2cc(F)c(N3CCNCC3)nc21 | Voltage-dependent P/Q-type calcium channel subunit alpha-1A | ion current, antagonist | HEK293 | 30 µM |  | inhibition | -2% |
| OCCCN1CC[C@@H]2C[C@H]1c1cc(-c3ccc(C(F)(F)F)cc3)ccc12 | ADRA2C | radioligand binding, PDSP competition binding |  | 10 µM |  | inhibition | < 50% |
| CC1(C)C=Cc2c(ccc3c2OC[C@@H](c2ccc(O)cc2O)C3)O1 | Glutamate NMDA receptor; GRIN1/GRIN2A (Homo sapiens, UniProt Q05586+Q12879) | ion current, inhibitor, two-electrode voltage clamp | Xenopus oocytes | 13 µM, with: NMDA and glycine |  | inhibition | > 50% |
| CC(=O)ON=C1C=CC(=C(C#N)c2ccccc2)C=C1 | Serine/threonine-protein kinase haspin (HASPIN, Homo sapiens, UniProt Q8TF76) | kinase activity, ADP-Glo |  | 20 µM |  | inhibition | 43% |
| Nc1nc2ccc(OC(F)(F)F)cc2s1 | Voltage-dependent P/Q-type calcium channel subunit alpha-1A | ion current, antagonist | HEK293 | 30 µM |  | inhibition | 71% |
| Cc1nn(-c2nc3c(F)cc(F)cc3s2)c(O)c1C(c1ccccc1C(F)(F)F)c1c(C)nn(-c2nc3c(F)cc(F)cc3s2)c1O | Cyclic GMP-AMP synthase (CGAS, Homo sapiens, UniProt Q8N884) | enzyme activity, inhibitor, pyrophosphatase-coupled |  | 50 µM, 1.5 h, with: HT-DNA |  | inhibition | 85.5% |
| O=C(Nc1cccc2c(=O)cc(-c3nnn[nH]3)oc12)c1ccc(OCCCCc2ccccc2)cc1 | Volume-regulated anion channel subunit LRRC8C, part LRRC8A IL1 chimera (LRRC8C, Homo sapiens, UniProt Q8TDW0, Y126F) | ion current, inhibitor, whole-cell patch clamp | HCT LRRC8-/- cells | 0.1 µM, -100 mV |  | inhibition | 32.3% and 8.08% and 23.9% and 9.23% and 11% |
| COc1ccc2c3c1O[C@H]1C[C@@H](O)C=C[C@@]31CCN(C)C2 | Voltage-dependent P/Q-type calcium channel subunit alpha-1A | ion current, antagonist | HEK293 | 3 µM |  | inhibition | -13% |
| COc1cc(Cl)c(C(=O)N[C@@H](CN[C@H]2CC[C@@H](N)CC2)Cc2ccc(C#N)cc2)cc1-c1ccc(CN[C@H](C)c2ccc(C)cc2)o1 | Substance-P receptor (TACR1, Homo sapiens, UniProt P25103) | agonist response, antagonist | human cells | 10 µM, NK1 antagonist |  | inhibition | 41% |
| Cc1ncc([N+](=O)[O-])n1C(=NO)c1ccccc1C(F)(F)F | CAMKI kinase |  |  | 10 µM |  | inhibition | 13.3% |
| O=c1ccc2c(OCCCCO)c3ccoc3cc2o1 | Potassium voltage-gated channel subfamily A member 3 (Kcna3, Mus musculus, UniProt P16390) | potassium current | L929 | 25 µM |  | inhibition | 40% |
| CC(C)NCC(O)COc1cccc2ccccc12 (stereo not drawn) | Voltage-dependent P/Q-type calcium channel subunit alpha-1A | ion current, antagonist | HEK293 | 3 µM |  | inhibition | 20% |
| Cc1cc(C)cc(COc2cc3c(cc2OCc2cc(C)cc(C)c2)[C@H]2C[C@](O)(Cc4cn(Cc5ccncc5)nn4)C[C@H](C)N2CC3)c1 | Rab GDP dissociation inhibitor beta with Rab1A | GDI2-Rab1A interaction, NanoLuc complementation |  | 6.25 µM |  | inhibition | 86.3% |
| CCC(C)(C)C(=O)O[C@H]1C[C@@H](C)C=C2C=C[C@H](C)[C@H](CC[C@@H]3C[C@@H](O)CC(=O)O3)[C@H]21 | Voltage-dependent P/Q-type calcium channel subunit alpha-1A | ion current, antagonist | HEK293 | 10 µM |  | inhibition | 94% |
| [2H]c1cc(C)c(NC(=O)c2cnc(Nc3cc(N4CCCCC4)nc(C)n3)s2)c(Cl)c1 | PDGFRB |  |  | 0.001 µM |  | inhibition | > 50% |
| Cc1cc(-c2ccnc3[nH]cc(F)c23)cc(F)c1[C@@]1(O)[C@H](C)CN(C2CCS(=O)(=O)CC2)C[C@@H]1C | Phosphatidylinositol 3-kinase catalytic subunit type 3 (PIK3C3, Homo sapiens, UniProt Q8NEB9) | ATP probe binding, KiNativ, measured: ATP site | HEK293T cell lysate | 0.1 µM |  | inhibition | 2.8% |

Repeated from above:
| SMILES | target or system | assay | test system | setting | scale | measurement | value |
| --- | --- | --- | --- | --- | --- | --- | --- |
| Cc1cc(-c2ccnc3[nH]cc(F)c23)cc(F)c1[C@@]1(O)[C@H](C)CN(C(=O)CN)C[C@@H]1C | Serine/threonine-protein kinase LATS1 (LATS1, Homo sapiens, UniProt O95835) | ATP probe binding, KiNativ, measured: Lys2 site | HEK293T cell lysate | 0.1 µM |  | inhibition | 37.5% |
| Cc1cc(C)cc(COc2cc3c(cc2OCc2cc(C)cc(C)c2)[C@@H]2C[C@@](O)(Cc4cn(Cc5ccc(S(C)(=O)=O)cc5)nn4)C[C@@H](C)N2CC3)c1 | Rab GDP dissociation inhibitor beta with Rab1A | GDI2-Rab1A interaction, NanoLuc complementation |  | 6.25 µM |  | inhibition | 91.1% |
| OO | Histone acetyltransferase RTT109, with Vps75 (Saccharomyces cerevisiae, UniProt Q07794) | enzyme activity |  | 1 mM, with: Rtt109-Vps75 complex, with DTT |  | inhibition | 20 ± 10% |
| COc1ccc(Cn2cc(C[C@@]3(O)C[C@@H]4c5cc(OCc6cc(C)cc(C)c6)c(OCc6cc(C)cc(C)c6)cc5CCN4[C@@H](C)C3)nn2)cc1 | Rab GDP dissociation inhibitor beta with Rab1A | GDI2-Rab1A interaction, NanoLuc complementation |  | 6.25 µM |  | inhibition | 96.7% |
| Cc1cc(NNC(=O)NC2CCCCC2)nc(Cl)c1C#N | UCHL1 | covalent, intact protein LC-MS |  | 12.5 µM |  | labelling | 13.6% |
| Cc1ccc(C(=O)Nc2ccc3ccccc3c2)o1 | KCNC4 | ion current, inhibitor, whole-cell patch clamp |  | 10 µM |  | inhibition | 0% and 2.76% and 2.15% |
